# Measurements from different studies.
# Parts stem from different laboratories: compare values within a part only. Changes are numbered by the printed parent chain.
# Sequence of UniProt Q86Z02 (whole entry, looked up): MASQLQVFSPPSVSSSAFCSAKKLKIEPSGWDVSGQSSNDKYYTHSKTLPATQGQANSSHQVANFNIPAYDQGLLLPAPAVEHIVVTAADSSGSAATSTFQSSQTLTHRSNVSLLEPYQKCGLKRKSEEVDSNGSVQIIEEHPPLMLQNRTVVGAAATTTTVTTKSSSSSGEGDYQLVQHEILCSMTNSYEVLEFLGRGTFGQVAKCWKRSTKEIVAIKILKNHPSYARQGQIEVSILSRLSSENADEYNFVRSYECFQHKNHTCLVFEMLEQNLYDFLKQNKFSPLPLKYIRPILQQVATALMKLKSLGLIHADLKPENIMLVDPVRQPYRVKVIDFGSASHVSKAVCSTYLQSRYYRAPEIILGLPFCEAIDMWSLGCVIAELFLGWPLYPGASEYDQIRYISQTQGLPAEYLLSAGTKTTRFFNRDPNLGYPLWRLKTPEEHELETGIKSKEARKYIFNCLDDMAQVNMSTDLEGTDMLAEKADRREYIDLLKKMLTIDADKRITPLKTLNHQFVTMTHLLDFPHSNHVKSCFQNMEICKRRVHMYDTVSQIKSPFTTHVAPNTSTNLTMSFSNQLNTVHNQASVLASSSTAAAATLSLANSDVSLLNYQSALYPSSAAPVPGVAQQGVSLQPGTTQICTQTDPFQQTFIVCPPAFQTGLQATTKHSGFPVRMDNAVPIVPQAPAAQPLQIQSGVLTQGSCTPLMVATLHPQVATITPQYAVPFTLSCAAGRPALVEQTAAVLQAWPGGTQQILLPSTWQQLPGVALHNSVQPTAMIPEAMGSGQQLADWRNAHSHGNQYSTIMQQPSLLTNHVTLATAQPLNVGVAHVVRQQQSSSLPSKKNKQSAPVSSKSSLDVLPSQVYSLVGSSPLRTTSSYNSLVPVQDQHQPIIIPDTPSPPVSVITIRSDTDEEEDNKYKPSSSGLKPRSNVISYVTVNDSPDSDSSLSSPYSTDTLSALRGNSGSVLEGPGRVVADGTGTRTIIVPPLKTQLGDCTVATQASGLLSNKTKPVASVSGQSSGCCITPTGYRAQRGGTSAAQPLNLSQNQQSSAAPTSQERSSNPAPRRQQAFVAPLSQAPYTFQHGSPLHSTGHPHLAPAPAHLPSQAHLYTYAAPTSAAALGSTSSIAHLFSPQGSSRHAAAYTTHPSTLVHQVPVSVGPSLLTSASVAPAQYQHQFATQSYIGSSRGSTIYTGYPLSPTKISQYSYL
# Sequence of UniProt P27448 (whole entry, looked up): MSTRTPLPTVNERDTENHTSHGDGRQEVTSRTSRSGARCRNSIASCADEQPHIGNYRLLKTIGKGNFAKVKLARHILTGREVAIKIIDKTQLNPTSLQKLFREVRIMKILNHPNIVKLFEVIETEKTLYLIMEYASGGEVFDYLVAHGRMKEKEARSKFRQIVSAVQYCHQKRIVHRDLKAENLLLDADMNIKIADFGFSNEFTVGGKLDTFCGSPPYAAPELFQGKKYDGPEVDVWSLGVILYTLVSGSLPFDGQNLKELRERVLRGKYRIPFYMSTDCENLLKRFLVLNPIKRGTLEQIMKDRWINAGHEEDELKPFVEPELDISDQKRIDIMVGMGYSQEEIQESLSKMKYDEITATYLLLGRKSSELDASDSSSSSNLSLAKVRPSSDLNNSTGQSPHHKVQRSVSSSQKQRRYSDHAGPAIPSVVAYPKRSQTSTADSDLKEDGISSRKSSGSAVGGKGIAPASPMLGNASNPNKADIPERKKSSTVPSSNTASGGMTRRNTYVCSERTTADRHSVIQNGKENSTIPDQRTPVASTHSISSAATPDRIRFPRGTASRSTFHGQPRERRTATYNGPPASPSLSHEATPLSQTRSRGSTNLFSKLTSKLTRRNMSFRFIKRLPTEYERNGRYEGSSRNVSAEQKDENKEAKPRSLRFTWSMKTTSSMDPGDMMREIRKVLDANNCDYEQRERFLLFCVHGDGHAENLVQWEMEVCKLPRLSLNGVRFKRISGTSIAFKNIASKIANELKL
# Sequence of UniProt Q9H2K8 (whole entry, looked up): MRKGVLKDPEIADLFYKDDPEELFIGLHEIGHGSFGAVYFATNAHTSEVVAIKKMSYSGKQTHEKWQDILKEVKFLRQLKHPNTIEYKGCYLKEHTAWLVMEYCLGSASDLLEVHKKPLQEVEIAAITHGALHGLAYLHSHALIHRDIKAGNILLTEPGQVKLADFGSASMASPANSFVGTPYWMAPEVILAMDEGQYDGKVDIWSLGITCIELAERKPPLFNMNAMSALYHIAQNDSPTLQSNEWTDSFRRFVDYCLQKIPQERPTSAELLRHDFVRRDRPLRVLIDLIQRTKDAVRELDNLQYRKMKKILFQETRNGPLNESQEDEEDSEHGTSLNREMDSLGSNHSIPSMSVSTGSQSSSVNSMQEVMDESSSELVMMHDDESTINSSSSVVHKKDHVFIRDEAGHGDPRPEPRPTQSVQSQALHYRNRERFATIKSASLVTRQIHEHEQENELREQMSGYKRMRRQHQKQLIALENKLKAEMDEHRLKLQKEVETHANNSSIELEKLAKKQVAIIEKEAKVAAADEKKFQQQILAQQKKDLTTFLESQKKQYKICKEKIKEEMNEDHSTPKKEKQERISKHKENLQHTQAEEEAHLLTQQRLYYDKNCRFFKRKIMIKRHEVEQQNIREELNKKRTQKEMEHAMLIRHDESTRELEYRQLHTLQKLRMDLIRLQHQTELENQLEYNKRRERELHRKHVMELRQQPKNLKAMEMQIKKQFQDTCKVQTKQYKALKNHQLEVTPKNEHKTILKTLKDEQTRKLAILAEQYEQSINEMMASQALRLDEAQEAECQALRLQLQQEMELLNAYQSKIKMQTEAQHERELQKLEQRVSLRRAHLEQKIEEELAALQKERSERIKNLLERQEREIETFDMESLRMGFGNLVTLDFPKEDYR
# Sequence of UniProt P16591 (whole entry, looked up): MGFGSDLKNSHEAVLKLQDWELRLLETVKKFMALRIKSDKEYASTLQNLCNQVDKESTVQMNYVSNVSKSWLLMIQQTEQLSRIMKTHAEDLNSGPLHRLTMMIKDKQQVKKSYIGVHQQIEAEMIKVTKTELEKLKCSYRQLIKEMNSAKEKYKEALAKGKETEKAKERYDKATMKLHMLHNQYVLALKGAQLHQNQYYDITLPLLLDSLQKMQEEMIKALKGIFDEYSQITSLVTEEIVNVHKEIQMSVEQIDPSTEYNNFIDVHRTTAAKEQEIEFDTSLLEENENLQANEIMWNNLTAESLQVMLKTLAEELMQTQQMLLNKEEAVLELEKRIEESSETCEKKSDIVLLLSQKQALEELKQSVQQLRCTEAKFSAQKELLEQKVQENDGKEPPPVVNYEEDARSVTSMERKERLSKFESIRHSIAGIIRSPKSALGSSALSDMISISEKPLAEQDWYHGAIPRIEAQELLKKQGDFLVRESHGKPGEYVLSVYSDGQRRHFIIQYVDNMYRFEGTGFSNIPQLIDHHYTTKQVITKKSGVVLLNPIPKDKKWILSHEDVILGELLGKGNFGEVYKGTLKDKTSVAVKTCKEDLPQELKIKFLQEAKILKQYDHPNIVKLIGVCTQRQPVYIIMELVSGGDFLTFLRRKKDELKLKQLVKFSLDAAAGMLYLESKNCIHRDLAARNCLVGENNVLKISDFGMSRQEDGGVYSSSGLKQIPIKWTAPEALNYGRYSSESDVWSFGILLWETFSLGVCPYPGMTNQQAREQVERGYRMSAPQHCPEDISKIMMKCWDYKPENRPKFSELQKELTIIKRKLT

# Series 1
# Target: CCNB1, cyclin fold, Cln2 fusion (human)
# Technique: yeast growth competition, sequencing
# Medium: yeast
# Notes: strong parent motif
# Relative to: not given
# Direction: higher = stronger binding
# Starting sequence: viral docking peptide; TSVRRALFTGGSD
Variant,normalised enrichment score
S12V,2.2
F8M,0.327
T9W,1.26
S12N,2.32
R5D,-0.117
V3E,0.0797
V3H,0.0896
G10H,1.44

# Series 2
# Target: UDP-N-acetylglucosamine--peptide N-acetylglucosaminyltransferase 110 kDa subunit (OGT, Homo sapiens, UniProt O15294)
# Sequence of UniProt O15294 (whole entry, looked up): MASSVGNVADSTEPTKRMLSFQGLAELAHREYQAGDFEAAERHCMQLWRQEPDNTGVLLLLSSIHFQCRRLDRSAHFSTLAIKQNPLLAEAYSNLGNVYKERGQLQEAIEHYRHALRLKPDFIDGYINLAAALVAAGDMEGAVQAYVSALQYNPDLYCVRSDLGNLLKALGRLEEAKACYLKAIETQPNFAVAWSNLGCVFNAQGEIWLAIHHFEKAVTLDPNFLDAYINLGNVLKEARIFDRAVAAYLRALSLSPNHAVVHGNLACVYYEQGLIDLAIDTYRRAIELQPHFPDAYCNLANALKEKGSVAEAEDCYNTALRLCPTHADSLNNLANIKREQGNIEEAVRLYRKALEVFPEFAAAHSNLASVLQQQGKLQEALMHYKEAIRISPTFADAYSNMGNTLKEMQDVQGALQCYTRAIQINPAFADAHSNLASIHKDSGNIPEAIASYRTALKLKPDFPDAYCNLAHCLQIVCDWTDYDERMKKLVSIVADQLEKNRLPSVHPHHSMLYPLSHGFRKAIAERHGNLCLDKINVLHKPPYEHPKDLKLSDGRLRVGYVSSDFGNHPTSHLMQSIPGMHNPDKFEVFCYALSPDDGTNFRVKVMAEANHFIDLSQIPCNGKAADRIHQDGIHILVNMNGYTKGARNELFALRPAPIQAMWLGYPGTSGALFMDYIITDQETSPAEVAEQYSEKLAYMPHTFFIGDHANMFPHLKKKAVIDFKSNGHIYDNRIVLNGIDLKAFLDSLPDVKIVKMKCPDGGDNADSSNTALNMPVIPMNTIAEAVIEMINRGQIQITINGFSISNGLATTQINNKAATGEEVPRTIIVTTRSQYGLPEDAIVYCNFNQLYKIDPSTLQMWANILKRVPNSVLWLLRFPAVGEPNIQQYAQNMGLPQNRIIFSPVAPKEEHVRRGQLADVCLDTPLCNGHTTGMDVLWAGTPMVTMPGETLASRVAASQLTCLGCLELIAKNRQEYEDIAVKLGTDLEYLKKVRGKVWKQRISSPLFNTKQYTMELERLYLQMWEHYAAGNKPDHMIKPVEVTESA
# Read-out: binding
# Technique: phage display NGS
# Molecule type: peptide
# Tested at: concentration not given
# Notes: panning round 2
# Relative to: input library
Sequence,enrichment fold change
YFEPKYEISFKYPHD,10.6
HSFMSYHLHTYHSMP,7.05
HLRTHRVDHHYYVYD,4.54
GPMQMFQPYYQIDYA,9.05
GRFNPVYQMVWEKTV,12.1
HWFHHTEGWLPQHSR,4.05
DWSHMRSHNHASFAH,6.22
HPFHHNYVHYLSREQ,5.47

# Series 3
# SMILES: N/C(=N\[N+](=O)[O-])N/N=C\c1ccc(-c2cccc([N+](=O)[O-])c2)o1
# Read-out: enzyme activity
# Mode: inhibitor
# Tested at: 0.5 µM
# Relative to: control
target,remaining activity
"Homeodomain-interacting protein kinase 1 (HIPK1, Homo sapiens, UniProt Q86Z02)",81.1%
"Tyrosine-protein kinase Fer (FER, Homo sapiens, UniProt P16591)",94.7%
"MAP/microtubule affinity-regulating kinase 3 (MARK3, Homo sapiens, UniProt P27448)",107%
"Serine/threonine-protein kinase TAO3 (TAOK3, Homo sapiens, UniProt Q9H2K8)",99.5%

# Single results of other studies
Structure (SMILES),target,test,conditions,quantity,result
O=C1c2ccc(Nc3ccc(F)cc3F)cc2CCc2ccc(OC[C@H](O)CO)cc21,"5-hydroxytryptamine receptor 1A (HTR1A, Homo sapiens, UniProt P08908)",cell-free assay,10 µM,inhibition,40.5%

# Some of these lines once more (series 2):
Sequence,enrichment fold change
HPFHHNYVHYLSREQ,5.47
HLRTHRVDHHYYVYD,4.54
YFEPKYEISFKYPHD,10.6
HSFMSYHLHTYHSMP,7.05
